Results collected from several papers.
Numbers after ± are the reported error.
Nuclear receptor subfamily 2 group C member 2 ligand-binding domain: Nuclear receptor subfamily 2 group C member 2, ligand-binding domain (Homo sapiens, UniProt P49116)
Sequence of UniProt P49116 (whole entry, looked up): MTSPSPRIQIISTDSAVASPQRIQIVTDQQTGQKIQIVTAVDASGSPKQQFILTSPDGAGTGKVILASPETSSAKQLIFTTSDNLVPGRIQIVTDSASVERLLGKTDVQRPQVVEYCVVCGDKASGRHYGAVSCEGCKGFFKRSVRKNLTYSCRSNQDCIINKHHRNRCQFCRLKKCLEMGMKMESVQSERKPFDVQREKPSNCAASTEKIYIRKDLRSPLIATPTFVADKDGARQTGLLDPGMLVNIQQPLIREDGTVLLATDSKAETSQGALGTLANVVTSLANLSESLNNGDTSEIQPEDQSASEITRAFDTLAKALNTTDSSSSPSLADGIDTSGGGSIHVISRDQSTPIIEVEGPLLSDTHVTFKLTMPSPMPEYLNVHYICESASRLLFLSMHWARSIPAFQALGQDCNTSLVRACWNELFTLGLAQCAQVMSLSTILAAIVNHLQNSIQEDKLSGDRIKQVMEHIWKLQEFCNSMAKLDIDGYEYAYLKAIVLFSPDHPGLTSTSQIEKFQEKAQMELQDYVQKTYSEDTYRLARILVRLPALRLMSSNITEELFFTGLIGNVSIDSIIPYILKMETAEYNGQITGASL
Sequence of UniProt Q13671 (whole entry, looked up): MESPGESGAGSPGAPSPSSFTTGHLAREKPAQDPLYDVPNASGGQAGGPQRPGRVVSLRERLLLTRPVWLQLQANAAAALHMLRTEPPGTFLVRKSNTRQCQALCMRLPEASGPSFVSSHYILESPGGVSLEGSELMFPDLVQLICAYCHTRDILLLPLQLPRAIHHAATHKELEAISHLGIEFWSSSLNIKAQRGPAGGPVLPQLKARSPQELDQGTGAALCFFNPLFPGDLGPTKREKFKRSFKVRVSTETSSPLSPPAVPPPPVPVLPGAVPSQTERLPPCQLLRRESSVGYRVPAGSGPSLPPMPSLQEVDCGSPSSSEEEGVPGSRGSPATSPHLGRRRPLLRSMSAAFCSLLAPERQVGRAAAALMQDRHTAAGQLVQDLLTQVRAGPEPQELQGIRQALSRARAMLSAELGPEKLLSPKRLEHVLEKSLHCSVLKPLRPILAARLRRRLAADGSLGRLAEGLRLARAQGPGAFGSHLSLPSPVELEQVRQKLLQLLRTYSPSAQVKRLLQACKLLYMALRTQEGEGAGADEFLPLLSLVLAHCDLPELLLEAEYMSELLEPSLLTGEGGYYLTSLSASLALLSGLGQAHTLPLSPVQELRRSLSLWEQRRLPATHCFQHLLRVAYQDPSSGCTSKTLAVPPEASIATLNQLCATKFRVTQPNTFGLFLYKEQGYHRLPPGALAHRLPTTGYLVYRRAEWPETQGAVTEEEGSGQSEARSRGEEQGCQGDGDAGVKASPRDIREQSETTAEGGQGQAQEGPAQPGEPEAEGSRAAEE
Sequence of UniProt P52333 (whole entry, looked up): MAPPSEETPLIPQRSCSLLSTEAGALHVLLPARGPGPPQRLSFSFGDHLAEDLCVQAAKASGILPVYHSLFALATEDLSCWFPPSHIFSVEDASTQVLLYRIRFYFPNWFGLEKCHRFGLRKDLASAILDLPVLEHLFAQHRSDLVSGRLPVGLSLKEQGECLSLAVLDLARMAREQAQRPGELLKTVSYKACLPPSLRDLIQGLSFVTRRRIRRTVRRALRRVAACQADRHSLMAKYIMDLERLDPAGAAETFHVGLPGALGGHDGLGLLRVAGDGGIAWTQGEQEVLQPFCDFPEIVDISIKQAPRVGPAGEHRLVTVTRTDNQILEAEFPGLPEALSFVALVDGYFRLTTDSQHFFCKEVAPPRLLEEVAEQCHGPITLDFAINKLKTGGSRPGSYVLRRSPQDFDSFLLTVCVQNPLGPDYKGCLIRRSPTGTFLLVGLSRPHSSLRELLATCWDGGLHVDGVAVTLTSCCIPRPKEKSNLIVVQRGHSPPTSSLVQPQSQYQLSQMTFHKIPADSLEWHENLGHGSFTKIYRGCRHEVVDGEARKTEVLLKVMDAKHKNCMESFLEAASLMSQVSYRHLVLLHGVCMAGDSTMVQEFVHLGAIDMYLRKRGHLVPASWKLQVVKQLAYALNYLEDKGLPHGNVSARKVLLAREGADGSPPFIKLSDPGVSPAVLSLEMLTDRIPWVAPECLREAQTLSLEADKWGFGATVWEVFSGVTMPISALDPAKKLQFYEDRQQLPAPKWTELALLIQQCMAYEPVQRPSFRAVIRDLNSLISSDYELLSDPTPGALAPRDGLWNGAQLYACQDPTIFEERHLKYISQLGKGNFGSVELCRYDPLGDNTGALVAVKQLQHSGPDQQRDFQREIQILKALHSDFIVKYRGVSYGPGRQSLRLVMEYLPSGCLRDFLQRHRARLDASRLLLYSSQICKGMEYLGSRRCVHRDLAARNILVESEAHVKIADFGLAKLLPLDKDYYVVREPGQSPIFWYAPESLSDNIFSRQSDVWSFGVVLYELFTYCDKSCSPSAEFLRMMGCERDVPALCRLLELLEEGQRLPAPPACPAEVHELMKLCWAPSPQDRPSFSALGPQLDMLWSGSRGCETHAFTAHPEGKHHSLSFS
Sequence of UniProt P46100 (whole entry, unmodified, looked up): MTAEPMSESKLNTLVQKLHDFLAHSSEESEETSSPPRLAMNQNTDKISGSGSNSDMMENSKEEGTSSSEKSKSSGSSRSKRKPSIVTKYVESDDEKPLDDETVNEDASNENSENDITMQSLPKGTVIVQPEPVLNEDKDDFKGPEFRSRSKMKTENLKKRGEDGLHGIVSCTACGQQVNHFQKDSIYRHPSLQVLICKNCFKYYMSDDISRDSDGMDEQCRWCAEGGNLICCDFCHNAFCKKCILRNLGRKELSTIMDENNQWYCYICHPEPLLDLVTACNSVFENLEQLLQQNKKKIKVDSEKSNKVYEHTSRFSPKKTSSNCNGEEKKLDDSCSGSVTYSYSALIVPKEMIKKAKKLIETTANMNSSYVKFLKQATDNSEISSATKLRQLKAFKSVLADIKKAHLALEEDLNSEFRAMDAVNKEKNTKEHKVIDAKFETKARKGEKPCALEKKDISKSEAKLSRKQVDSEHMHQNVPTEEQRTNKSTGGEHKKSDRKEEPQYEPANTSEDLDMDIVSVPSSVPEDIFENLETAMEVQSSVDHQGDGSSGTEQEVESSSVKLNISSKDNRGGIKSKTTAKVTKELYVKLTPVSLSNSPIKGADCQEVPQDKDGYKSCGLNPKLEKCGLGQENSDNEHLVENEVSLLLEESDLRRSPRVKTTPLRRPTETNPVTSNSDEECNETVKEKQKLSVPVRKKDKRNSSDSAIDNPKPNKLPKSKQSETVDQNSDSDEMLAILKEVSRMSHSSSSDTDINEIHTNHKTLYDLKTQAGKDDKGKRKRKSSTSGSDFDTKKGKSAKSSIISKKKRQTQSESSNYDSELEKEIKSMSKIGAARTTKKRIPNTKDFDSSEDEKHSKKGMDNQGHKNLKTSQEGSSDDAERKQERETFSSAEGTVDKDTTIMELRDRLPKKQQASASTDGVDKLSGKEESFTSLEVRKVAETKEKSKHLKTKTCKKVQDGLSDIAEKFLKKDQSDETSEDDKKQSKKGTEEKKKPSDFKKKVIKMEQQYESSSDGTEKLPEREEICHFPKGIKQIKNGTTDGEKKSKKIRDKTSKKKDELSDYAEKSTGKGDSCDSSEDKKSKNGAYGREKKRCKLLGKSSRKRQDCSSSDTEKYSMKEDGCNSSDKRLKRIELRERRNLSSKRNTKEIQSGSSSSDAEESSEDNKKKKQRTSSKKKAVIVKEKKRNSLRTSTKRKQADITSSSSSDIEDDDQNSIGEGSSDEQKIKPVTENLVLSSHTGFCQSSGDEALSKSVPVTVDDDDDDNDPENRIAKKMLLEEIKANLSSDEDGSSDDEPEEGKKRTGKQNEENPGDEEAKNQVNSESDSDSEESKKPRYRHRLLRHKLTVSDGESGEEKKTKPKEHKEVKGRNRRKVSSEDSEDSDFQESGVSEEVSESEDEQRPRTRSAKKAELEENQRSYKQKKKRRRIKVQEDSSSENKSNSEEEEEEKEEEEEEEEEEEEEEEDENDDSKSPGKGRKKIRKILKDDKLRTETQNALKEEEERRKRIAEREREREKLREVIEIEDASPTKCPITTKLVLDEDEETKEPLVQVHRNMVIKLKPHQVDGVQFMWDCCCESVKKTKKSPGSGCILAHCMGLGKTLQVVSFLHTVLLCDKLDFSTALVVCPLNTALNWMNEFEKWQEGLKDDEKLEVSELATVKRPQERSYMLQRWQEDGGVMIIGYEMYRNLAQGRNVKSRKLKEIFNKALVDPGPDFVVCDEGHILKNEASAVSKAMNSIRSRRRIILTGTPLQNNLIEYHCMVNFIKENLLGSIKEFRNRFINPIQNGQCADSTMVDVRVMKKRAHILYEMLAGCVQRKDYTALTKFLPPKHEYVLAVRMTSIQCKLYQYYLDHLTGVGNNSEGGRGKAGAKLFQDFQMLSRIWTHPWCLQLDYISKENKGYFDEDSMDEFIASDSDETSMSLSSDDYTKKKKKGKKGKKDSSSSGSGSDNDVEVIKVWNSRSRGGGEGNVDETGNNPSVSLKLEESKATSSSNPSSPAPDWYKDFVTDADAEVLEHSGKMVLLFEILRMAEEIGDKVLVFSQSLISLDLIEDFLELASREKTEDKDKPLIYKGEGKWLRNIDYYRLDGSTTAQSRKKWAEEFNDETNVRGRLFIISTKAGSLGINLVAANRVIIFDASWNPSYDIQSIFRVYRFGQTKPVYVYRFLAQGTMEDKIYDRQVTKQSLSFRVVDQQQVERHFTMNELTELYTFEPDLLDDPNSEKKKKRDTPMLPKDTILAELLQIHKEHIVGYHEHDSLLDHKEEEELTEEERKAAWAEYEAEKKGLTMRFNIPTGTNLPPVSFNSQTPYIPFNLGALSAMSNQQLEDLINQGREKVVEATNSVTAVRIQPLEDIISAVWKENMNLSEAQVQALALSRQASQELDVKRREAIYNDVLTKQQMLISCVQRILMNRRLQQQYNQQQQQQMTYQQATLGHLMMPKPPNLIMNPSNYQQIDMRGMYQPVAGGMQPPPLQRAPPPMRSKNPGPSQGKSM
Sequence of UniProt Q9X6J6 (whole entry, unmodified, looked up): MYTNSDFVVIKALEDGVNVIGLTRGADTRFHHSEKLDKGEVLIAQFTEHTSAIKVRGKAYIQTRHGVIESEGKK

The Kd of `Nc1ncnc2c1ncn2[C@@H]1O[C@H](COP(=O)(O)OP(=O)(O)NP(=O)(O)O)[C@@H](O)[C@H]1O` is reported as 25000 nM (Cell cycle histidine kinase CckA, G318A; cytoplasmic region (Caulobacter vibrioides, UniProt Q9X688, G318A); isothermal titration calorimetry; Caulobacter crescentus; 12 °C, together with: without c-di-GMP).
With `CN(CC(=O)O)C(=N)NP(=O)(O)O` the Kd was 213000 ± 77000 nM (Creatine kinase U-type, mitochondrial (CKMT1A, Homo sapiens, UniProt P12532, H99K); microscale thermophoresis; pH 7.0, H61K mutant, no substrate).
With `C[C@H](N)C(=O)N[C@@H](CCCNC(=N)N)C(=O)N[C@H](C(=O)N[C@@H](CCCCN)C(=O)N[C@@H](CCC(N)=O)C(=O)N[C@H](C(=O)N[C@@H](C)C(=O)N[C@@H](CCCNC(=N)N)C(=O)N[C@@H](C)C(=O)N[C@@H](CO)C(=O)O)[C@@H](C)O)[C@@H](C)O` the Kd was 26800 nM (Transcriptional regulator ATRX (ATRX, Homo sapiens, UniProt P46100, F284Y/K251R); binding, isothermal titration calorimetry; pH 7.5, 25.0 °C).
The Kd of `Cc1cn([C@H]2C[C@H](O)[C@@H](COP(=O)(O)OP(=O)(O)OP(=O)(O)O)O2)c(=O)[nH]c1=O` is reported as 17000 ± 1000 nM (DNA polymerase I, Klenow fragment (polA, Escherichia coli, UniProt P00582, C907S/D424A/L744C); nucleotide incorporation, substrate, single-turnover rapid quench; together with: radiolabelled primer-template DNA).
`O=C(O[C@@H]1Cc2c(O)cc(O)cc2O[C@@H]1c1cc(O)c(O)c(O)c1)c1cc(O)c(O)c(O)c1` gave a Kd of 197 ± 60 nM (Small ribosomal subunit protein uS2 (RPSA, Homo sapiens, UniProt P08865); binding).
For `CC[C@H](C)[C@@H]1NC(=O)[C@H](Cc2c[nH]c3ccccc23)NC(=O)[C@H](Cc2ccc(O)cc2)NC(=O)CSC[C@@H](C(N)=O)NC(=O)[C@H]([C@@H](C)O)NC(=O)[C@H](CO)NC(=O)[C@H](C(C)C)NC(=O)[C@H](Cc2ccc(O)cc2)NC(=O)[C@H](CCCNC(=N)N)NC(=O)[C@H](Cc2ccc(O)cc2)NC(=O)[C@H]([C@@H](C)O)NC(=O)[C@H]([C@@H](C)O)NC(=O)[C@H](Cc2c[nH]c3ccccc23)NC(=O)[C@H](CO)NC(=O)[C@H](CC(N)=O)NC(=O)[C@H](CO)NC1=O`, the Kd was 1770 ± 170 nM (uncharacterized protein, C-terminal tail deletion (Thermochaetoides thermophila, UniProt G0S0E6+G0S709); binding, ITC; 25 °C, Vps26 tail removed, Chaetomium thermophilum).
For `C[N+](C)(C)[C@@H](Cc1c[nH]c(=S)[nH]1)C(=O)[O-]`, the Kd was 34.1 nM (Ergothioneine transport permease/ergothioneine binding protein EgtU, substrate-binding domain (egtU, Helicobacter pylori, UniProt B5Z7I3, S297F); binding, isothermal titration calorimetry; substrate-binding domain).
For `Nc1c2c(nc3sc4c(c13)CCCC4)CCCC2`, the Kd was 38700 nM (Glideosome-associated protein 50 (GAP50, Plasmodium falciparum, UniProt Q8I2X3); binding, surface plasmon resonance; 1:1 binding model).
`CSCC[C@H](NC(=O)[C@H](CC(=O)O)NC(=O)c1ccc2c(c1)C(=O)OC21c2ccc(N(C)C)cc2Oc2cc(N(C)C)ccc21)C(=O)N[C@@H](CO)C(=O)N[C@@H](CCCCN)C(=O)N[C@@H](CC(=O)O)C(=O)N[C@@H](CCC(=O)O)C(=O)N[C@@H](CO)C(=O)N[C@H](C(=O)N[C@@H](CC(=O)O)C(=O)N[C@@H](Cc1ccc(OP(=O)(O)O)cc1)C(=O)N[C@H](C(=O)N1CCC[C@H]1C(=O)N[C@@H](CCSC)C(=O)N[C@@H](CC(C)C)C(=O)N[C@@H](CC(=O)O)C(=O)N[C@@H](CCSC)C(=O)N[C@@H](CCCCN)C(=O)N[C@@H](CC(=O)O)C(=O)O)C(C)C)C(C)C` gave a Kd of 497 nM (Ras and Rab interactor 1, SH2 domain (RIN1, Homo sapiens, UniProt Q13671); binding).
The Kd of `Nc1ccn([C@H]2C[C@H](O)[C@@H](COP(=O)(O)OP(=O)(O)OP(=O)(O)O)O2)c(=O)n1` is reported as 8200 nM (DNA polymerase I, Klenow fragment (polA, Escherichia coli, UniProt P00582, C907S/D424A/L744C/Y766A); substrate, single-turnover chemical quench; together with: dNTP).
`CSCC[C@H](NC(=O)[C@H](CC(C)C)NC(=O)[C@H](C)NC(=O)[C@H](CCCNC(=N)N)NC(=O)[C@H](Cc1ccc(OP(=O)(O)O)cc1)NC(=O)[C@H](Cc1ccccc1)NC(=O)[C@H](CC(N)=O)NC(=O)[C@H](CO)NC(=O)[C@H](CC(=O)O)NC(=O)[C@@H](NC(=O)[C@@H]1CCCN1C(=O)[C@H](CO)NC(=O)[C@@H]1CCCN1C(=O)[C@H](CC(C)C)NC(=O)c1ccc2c(c1)C(=O)OC21c2ccc(N(C)C)cc2Oc2cc(N(C)C)ccc21)[C@@H](C)O)C(=O)N[C@@H](CC(=O)O)C(=O)N[C@@H](CCC(=O)O)C(=O)N[C@@H](CCC(=O)O)C(=O)N[C@@H](CC(=O)O)C(=O)O` gave a Kd of 1360 nM (SH2B3, SH2 domain (Homo sapiens, UniProt Q9UQQ2); binding).
For `Cc1cc(C(C#N)c2ccc(Cl)cc2)c(Cl)cc1NC(=O)c1cc(I)cc(I)c1O` (stereo not shown), the Kd was 3.25 nM (Nuclear receptor subfamily 2 group C member 2 ligand-binding domain; SPR imaging).
For `CC[C@H](C)[C@H](NC(=O)[C@H](Cc1ccc(OP(=O)(O)O)cc1)NC(=O)[C@H](CCC(=O)O)NC(=O)[C@@H]1CCCN1C(=O)[C@@H](NC(=O)[C@@H]1CCCN1C(=O)[C@H](CC(C)C)NC(=O)[C@H](Cc1ccccc1)NC(=O)[C@@H](NC(=O)[C@H](CC(=O)O)NC(=O)[C@H](CC(=O)O)NC(=O)c1ccc2c(c1)C(=O)OC21c2ccc(N(C)C)cc2Oc2cc(N(C)C)ccc21)[C@@H](C)O)C(C)C)C(=O)N[C@@H](CC(N)=O)C(=O)N[C@@H](CCC(N)=O)C(=O)N[C@@H](CO)C(=O)N[C@H](C(=O)N1CCC[C@H]1C(=O)N[C@@H](CCCCN)C(=O)N[C@@H](CC(=O)O)C(=O)O)C(C)C`, the Kd was 1980 nM (Growth factor receptor-bound protein 7, SH2 domain (GRB7, Homo sapiens, UniProt Q14451); binding).
For `N[C@@H](Cc1c[nH]c2ccccc12)C(=O)O`, the Kd was 90 ± 20 nM (Transcription attenuation protein MtrB, Δ71 truncation (mtrB, Geobacillus stearothermophilus, UniProt Q9X6J6); isothermal titration calorimetry; 25 °C, one-site model).
Under Kd, `CC(C)C[C@H](NC(=O)[C@H](CCC(N)=O)NC(=O)[C@H](CC(C)C)NC(=O)[C@H](CC(C)C)NC(=O)[C@H](CO)NC(=O)[C@H](Cc1c[nH]cn1)NC(=O)[C@H](CC(C)C)NC(=O)[C@H](CC(=O)O)NC(=O)[C@H](CO)NC(=O)[C@H](CCC(=O)O)NC(=O)[C@H](Cc1ccccc1)NC(=O)[C@H](C)NC(=O)[C@H](Cc1ccccc1)NC(=O)[C@H](CCC(N)=O)NC(=O)[C@H](C)N)C(=O)N[C@@H](CCCCN)C(=O)N[C@@H](CCCCN)C(=O)N[C@@H](CCCCN)C(=O)N[C@@H](CCCCNC(=O)CCCCCNC(=S)Nc1ccc2c(c1)C(=O)OC21c2ccc(O)cc2Oc2cc(O)ccc21)C(N)=O` is recorded as “no binding” (E3 ubiquitin-protein ligase XIAP, BIR1 domain (XIAP, Homo sapiens, UniProt P98170); fluorescence polarization; 30 min, pH 7.5, together with: 20 nM FITC-labeled peptide).
With `CC(C)C[C@H](NC(=O)[C@@H](NC(=O)[C@H](CO)NC(=O)[C@H](CO)NC(=O)[C@@H](NC(=O)[C@H](CC(=O)O)NC(=O)[C@H](CC(C)C)NC(=O)[C@@H]1CCCN1C(=O)[C@H](CO)NC(=O)c1ccc2c(c1)C(=O)OC21c2ccc(N(C)C)cc2Oc2cc(N(C)C)ccc21)[C@@H](C)O)C(C)C)C(=O)N[C@@H](Cc1ccc(OP(=O)(O)O)cc1)C(=O)N[C@H](C(=O)N[C@@H](C)C(=O)N[C@H](C(=O)N[C@@H](CCC(N)=O)C(=O)N1CCC[C@H]1C(=O)N[C@@H](CC(N)=O)C(=O)N[C@@H](CCC(=O)O)C(=O)N[C@@H](CC(=O)O)C(=O)O)C(C)C)[C@@H](C)O` the Kd was 1030 nM (Tyrosine-protein kinase JAK3, SH2 domain (JAK3, Homo sapiens, UniProt P52333); binding).
The Kd of `CC(=O)c1cnc2ccc(-c3cc(Cl)c(O)c(Cl)c3)nc2c1N[C@H]1CC[C@H](CN(C)C)CC1` is reported as 15300 nM (Receptor-like kinase TMK4 (TMK4, Arabidopsis thaliana, UniProt Q9LK43); binding, SPR).
`CSCC[C@H](NC(=O)CNC(=O)[C@H](Cc1ccccc1)NC(=O)[C@H](CC(=O)O)NC(=O)CNC(=O)c1ccc2c(c1)C(=O)OC21c2ccc(N(C)C)cc2Oc2cc(N(C)C)ccc21)C(=O)N[C@@H](CO)C(=O)N[C@@H](CCCNC(=N)N)C(=O)N[C@@H](CC(=O)O)C(=O)N[C@H](C(=O)N[C@@H](Cc1ccc(OP(=O)(O)O)cc1)C(=O)N[C@@H](CO)C(=O)N[C@H](C(=O)N[C@@H](CC(=O)O)C(=O)N[C@@H](Cc1ccc(O)cc1)C(=O)N[C@@H](Cc1ccc(O)cc1)C(=O)N[C@@H](CCCNC(=N)N)C(=O)N[C@H](C(=O)N[C@@H](CC(=O)O)C(=O)O)C(C)C)[C@@H](C)O)C(C)C` has a Kd of 1040 nM (Tyrosine-protein kinase Lyn, SH2 domain (LYN, Homo sapiens, UniProt P07948); binding).
`CCC[S+]([O-])c1ccc2[nH]c(NC(=O)OC)nc2c1` (stereo not shown) has a Kd of 25.7 nM (Nuclear receptor subfamily 2 group C member 2 ligand-binding domain; SPR imaging).

Repeated from above:
Under Kd, `CC(C)C[C@H](NC(=O)[C@H](CCC(N)=O)NC(=O)[C@H](CC(C)C)NC(=O)[C@H](CC(C)C)NC(=O)[C@H](CO)NC(=O)[C@H](Cc1c[nH]cn1)NC(=O)[C@H](CC(C)C)NC(=O)[C@H](CC(=O)O)NC(=O)[C@H](CO)NC(=O)[C@H](CCC(=O)O)NC(=O)[C@H](Cc1ccccc1)NC(=O)[C@H](C)NC(=O)[C@H](Cc1ccccc1)NC(=O)[C@H](CCC(N)=O)NC(=O)[C@H](C)N)C(=O)N[C@@H](CCCCN)C(=O)N[C@@H](CCCCN)C(=O)N[C@@H](CCCCN)C(=O)N[C@@H](CCCCNC(=O)CCCCCNC(=S)Nc1ccc2c(c1)C(=O)OC21c2ccc(O)cc2Oc2cc(O)ccc21)C(N)=O` is recorded as “no binding” (E3 ubiquitin-protein ligase XIAP, BIR1 domain (XIAP, Homo sapiens, UniProt P98170); fluorescence polarization; 30 min, pH 7.5, together with: 20 nM FITC-labeled peptide).
With `CC(C)C[C@H](NC(=O)[C@@H](NC(=O)[C@H](CO)NC(=O)[C@H](CO)NC(=O)[C@@H](NC(=O)[C@H](CC(=O)O)NC(=O)[C@H](CC(C)C)NC(=O)[C@@H]1CCCN1C(=O)[C@H](CO)NC(=O)c1ccc2c(c1)C(=O)OC21c2ccc(N(C)C)cc2Oc2cc(N(C)C)ccc21)[C@@H](C)O)C(C)C)C(=O)N[C@@H](Cc1ccc(OP(=O)(O)O)cc1)C(=O)N[C@H](C(=O)N[C@@H](C)C(=O)N[C@H](C(=O)N[C@@H](CCC(N)=O)C(=O)N1CCC[C@H]1C(=O)N[C@@H](CC(N)=O)C(=O)N[C@@H](CCC(=O)O)C(=O)N[C@@H](CC(=O)O)C(=O)O)C(C)C)[C@@H](C)O` the Kd was 1030 nM (Tyrosine-protein kinase JAK3, SH2 domain (JAK3, Homo sapiens, UniProt P52333); binding).
